Results pooled from the literature.
Parts stem from different laboratories: compare values within a part only.
Sequence of UniProt Q16644 (whole entry, looked up): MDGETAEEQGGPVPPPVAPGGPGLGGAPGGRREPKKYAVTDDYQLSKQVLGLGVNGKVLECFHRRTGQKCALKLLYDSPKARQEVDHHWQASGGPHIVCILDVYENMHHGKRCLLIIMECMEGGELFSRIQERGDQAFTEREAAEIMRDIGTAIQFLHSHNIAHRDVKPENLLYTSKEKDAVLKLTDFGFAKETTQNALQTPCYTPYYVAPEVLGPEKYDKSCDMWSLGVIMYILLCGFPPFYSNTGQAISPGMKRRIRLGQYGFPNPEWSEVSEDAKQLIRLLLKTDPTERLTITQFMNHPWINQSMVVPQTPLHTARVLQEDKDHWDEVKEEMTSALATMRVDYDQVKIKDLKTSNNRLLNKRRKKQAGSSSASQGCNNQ
Sequence of UniProt Q96PF2 (whole entry, looked up): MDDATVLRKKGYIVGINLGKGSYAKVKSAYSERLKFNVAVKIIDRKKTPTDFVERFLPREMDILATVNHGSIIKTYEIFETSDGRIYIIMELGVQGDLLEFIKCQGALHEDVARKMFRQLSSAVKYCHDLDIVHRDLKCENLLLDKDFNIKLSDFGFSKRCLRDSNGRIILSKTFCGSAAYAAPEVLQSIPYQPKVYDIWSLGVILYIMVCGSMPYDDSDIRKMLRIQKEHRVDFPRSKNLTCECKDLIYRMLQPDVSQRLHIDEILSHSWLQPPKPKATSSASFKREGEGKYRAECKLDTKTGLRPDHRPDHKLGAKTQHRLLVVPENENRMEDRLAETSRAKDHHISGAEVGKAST
Sequence of UniProt Q8NE63 (whole entry, looked up): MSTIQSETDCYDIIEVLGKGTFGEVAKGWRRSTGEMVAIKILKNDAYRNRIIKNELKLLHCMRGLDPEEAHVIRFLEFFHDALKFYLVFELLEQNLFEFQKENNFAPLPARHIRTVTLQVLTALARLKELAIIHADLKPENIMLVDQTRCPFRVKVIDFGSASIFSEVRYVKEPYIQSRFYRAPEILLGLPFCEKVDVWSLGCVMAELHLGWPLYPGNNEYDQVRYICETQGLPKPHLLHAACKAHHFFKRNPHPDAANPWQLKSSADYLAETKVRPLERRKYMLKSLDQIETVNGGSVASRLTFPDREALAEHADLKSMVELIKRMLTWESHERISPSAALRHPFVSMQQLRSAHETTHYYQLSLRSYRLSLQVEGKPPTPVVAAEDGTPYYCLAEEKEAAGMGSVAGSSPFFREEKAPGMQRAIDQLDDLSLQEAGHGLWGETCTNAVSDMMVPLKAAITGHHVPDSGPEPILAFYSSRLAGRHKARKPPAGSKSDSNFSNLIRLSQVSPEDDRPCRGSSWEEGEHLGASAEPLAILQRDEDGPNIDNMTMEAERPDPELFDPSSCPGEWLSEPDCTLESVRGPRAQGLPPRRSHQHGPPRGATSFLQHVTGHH
Sequence of UniProt Q9UK32 (whole entry, looked up): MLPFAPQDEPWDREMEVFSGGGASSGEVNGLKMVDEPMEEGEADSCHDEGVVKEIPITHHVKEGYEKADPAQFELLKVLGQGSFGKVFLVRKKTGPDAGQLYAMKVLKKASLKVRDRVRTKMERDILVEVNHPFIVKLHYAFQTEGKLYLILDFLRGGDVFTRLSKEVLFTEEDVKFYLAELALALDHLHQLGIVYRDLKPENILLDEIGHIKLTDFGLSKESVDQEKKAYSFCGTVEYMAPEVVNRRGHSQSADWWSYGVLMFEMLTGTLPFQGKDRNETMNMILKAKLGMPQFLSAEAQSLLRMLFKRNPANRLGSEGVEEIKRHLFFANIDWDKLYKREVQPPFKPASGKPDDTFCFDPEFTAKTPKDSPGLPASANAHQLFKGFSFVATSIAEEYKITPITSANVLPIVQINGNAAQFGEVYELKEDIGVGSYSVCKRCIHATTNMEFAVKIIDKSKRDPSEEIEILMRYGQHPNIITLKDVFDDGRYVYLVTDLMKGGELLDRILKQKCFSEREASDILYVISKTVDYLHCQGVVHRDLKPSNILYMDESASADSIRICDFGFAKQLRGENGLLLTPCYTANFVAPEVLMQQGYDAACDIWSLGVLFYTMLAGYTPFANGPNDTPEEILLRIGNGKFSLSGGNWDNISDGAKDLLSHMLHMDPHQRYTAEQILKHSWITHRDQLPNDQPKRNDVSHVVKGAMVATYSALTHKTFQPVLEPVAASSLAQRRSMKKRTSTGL
Sequence of UniProt Q9H3Y6 (whole entry, looked up): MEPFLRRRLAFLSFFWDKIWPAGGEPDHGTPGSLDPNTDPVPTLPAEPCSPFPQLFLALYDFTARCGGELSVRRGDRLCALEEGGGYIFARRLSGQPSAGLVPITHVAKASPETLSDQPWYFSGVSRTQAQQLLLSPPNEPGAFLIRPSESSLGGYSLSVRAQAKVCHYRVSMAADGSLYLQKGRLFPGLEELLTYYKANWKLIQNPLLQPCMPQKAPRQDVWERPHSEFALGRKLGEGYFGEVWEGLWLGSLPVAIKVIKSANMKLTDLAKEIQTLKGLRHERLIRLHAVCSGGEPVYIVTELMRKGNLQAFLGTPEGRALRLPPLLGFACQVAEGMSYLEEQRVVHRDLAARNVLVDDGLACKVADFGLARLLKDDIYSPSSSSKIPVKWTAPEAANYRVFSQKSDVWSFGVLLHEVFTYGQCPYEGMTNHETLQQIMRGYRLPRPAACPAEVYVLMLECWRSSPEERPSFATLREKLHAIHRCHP
Sequence of UniProt P06493 (whole entry, looked up): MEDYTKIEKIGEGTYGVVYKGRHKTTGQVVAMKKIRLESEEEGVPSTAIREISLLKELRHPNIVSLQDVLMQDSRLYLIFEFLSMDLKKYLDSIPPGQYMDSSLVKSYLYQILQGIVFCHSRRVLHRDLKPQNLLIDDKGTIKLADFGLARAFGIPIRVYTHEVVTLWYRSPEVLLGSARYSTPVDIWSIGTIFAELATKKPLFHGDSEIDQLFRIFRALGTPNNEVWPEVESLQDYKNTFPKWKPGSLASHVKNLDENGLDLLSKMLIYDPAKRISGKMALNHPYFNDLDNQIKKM
Sequence of UniProt Q9UEE5 (whole entry, looked up): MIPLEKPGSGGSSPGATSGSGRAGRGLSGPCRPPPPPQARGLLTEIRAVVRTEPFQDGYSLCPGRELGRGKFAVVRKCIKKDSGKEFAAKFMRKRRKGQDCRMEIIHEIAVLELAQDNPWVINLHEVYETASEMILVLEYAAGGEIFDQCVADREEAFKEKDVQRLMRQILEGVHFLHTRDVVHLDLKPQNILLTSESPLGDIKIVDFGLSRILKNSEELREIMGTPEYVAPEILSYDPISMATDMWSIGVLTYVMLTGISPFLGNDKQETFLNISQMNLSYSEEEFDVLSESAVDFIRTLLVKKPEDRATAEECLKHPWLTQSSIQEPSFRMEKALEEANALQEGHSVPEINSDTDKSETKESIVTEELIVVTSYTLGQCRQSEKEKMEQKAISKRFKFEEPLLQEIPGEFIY
Sequence of UniProt P11802 (whole entry, looked up): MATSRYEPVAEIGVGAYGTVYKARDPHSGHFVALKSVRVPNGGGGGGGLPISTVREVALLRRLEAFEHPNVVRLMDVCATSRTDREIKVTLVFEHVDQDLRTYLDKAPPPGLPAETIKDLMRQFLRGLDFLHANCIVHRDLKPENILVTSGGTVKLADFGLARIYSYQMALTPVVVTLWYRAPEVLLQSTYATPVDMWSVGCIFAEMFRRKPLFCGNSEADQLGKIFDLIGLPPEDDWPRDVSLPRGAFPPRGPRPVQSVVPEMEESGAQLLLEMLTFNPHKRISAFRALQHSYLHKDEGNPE
Sequence of UniProt Q16816 (whole entry, looked up): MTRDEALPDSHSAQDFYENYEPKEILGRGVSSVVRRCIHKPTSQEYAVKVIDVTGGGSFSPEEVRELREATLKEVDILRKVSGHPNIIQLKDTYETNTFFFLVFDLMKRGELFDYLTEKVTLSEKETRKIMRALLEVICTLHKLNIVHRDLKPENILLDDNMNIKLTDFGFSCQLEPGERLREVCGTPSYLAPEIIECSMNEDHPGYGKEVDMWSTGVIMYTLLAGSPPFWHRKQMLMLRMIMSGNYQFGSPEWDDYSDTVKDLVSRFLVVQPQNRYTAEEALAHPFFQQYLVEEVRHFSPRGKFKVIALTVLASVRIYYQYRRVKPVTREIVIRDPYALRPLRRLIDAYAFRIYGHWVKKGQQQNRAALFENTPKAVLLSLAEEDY

Series 1
SMILES: C=CCc1ccc(O)c(-c2cc(CC=C)ccc2O)c1
Observed: chloride current
ANO1 del476-501/E649A/R541A: Anoctamin-1 (ANO1, Homo sapiens, UniProt Q5XXA6, del476-501/E649A/R541A)
Sequence of UniProt Q5XXA6 (whole entry, unmodified, looked up): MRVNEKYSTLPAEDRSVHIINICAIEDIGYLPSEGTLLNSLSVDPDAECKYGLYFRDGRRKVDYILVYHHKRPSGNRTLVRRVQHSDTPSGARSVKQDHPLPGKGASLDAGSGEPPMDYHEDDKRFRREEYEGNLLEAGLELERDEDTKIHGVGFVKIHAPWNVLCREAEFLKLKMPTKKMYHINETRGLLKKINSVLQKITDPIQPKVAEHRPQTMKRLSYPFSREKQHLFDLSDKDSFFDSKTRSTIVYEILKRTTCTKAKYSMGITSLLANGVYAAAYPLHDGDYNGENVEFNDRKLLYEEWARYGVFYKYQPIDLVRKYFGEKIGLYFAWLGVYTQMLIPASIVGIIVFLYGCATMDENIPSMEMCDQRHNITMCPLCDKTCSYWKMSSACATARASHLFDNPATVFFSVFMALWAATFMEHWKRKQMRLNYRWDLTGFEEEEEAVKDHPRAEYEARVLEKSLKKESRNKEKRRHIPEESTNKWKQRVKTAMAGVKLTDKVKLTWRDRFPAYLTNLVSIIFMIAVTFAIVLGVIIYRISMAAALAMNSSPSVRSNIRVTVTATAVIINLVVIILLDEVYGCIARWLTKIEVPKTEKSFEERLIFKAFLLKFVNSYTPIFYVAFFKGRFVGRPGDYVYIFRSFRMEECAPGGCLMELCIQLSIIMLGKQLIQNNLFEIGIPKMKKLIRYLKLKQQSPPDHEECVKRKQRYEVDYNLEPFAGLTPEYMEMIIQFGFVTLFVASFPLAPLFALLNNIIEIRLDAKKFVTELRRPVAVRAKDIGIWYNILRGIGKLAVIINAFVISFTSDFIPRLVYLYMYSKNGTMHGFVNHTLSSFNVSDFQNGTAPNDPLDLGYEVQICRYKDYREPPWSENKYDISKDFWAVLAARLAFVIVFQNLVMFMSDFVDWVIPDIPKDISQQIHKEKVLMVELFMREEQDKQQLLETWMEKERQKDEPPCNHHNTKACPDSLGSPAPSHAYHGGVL
target	test	conditions	normalized current
Anoctamin-1 (ANO1, Homo sapiens, UniProt Q5XXA6, del476-501/E659A/K629A)	inside-out patch clamp	30 µM, membrane voltage -20 mV	-0.122
ANO1 del476-501/E649A/R541A	inside-out patch clamp	30 µM, membrane voltage 0 mV	0.0068
Anoctamin-1 (ANO1, Homo sapiens, UniProt Q5XXA6, del476-501/R541A)	whole-cell voltage clamp	10 µM, membrane voltage 0 mV, together with: 4 µM Ca2+ (saturating)	-0.0042
TMEM16A (human) K603A/E623A	inside-out patch clamp	30 µM, membrane voltage -40 mV	-0.129
Anoctamin-1 (ANO1, Homo sapiens, UniProt Q5XXA6, del476-501)	whole-cell voltage clamp	10 µM, membrane voltage 0 mV, together with: 4 µM Ca2+ (saturating)	-0.0011
ANO1 del476-501/E649A/R541A	inside-out patch clamp	30 µM, membrane voltage 60 mV	0.349
ANO1 del476-501/E649A/R541A	inside-out patch clamp	30 µM, membrane voltage 100 mV	0.79

Series 2
SMILES: COc1cccc(NC(=O)c2nc3scc(CN(C)Cc4ccccc4)c3c(=O)[nH]2)c1
Tested at: 1 µM
Relative to: DMSO
cell line	conditions	viability
sample C colorectal tumour organoid	replicate 2	90.7%
colorectal tumour organoids		107%
sample I colorectal tumour organoid	replicate 1	189%
sample BA colorectal tumour organoid		84.9%
sample I colorectal tumour organoid	replicate 2	103%
sample C colorectal tumour organoid	replicate 1	88%
sample B colorectal tumour organoid	replicate 1	110%
sample B colorectal tumour organoid	replicate 2	109%

Series 3
Cell line: A-375
Tested at: 100 µM
Time: 18 h
SMILES	viability
CCOC(=O)O[C@]1(C(=O)OCCl)CC[C@H]2[C@@H]3CCC4=CC(=O)C=C[C@]4(C)[C@H]3[C@@H](O)C[C@@]21C	71.7%
CCOc1ccc2nc3cc(N)ccc3c(N)c2c1	8.7%
COc1cc2c(N3CCN(C(=O)Nc4ccc(OC(C)C)cc4)CC3)ncnc2cc1OCCCN1CCCCC1	16.2%
NC(N)=Nc1nc(CSCCC(N)=NS(N)(=O)=O)cs1	108%
O=C(O)c1cn(-c2ccc(F)cc2)c2cc(N3CCNCC3)c(F)cc2c1=O	94.8%
CN(C)CCn1nnnc1SCC1=C(C(=O)O)N2C(=O)[C@@H](NC(=O)Cc3csc(N)n3)[C@H]2SC1	112%
CCN(CC)C(=O)Nc1ccc(OCC(O)CNC(C)(C)C)c(C(C)=O)c1 (stereo not drawn)	88.7%
C[C@]12CCC(=O)C=C1[C@@H]1C[C@@H]1[C@H]1[C@@H]3[C@@H]4C[C@@H]4[C@@]4(CCC(=O)O4)[C@@]3(C)CC[C@@H]12	64.7%
C#C[C@]1(O)CC[C@H]2[C@@H]3CCC4=Cc5oncc5C[C@]4(C)[C@H]3CC[C@@]21C	6.98%
C[C@@H]1[C@H](O)[C@@H](C)/C=C/C=C/C=C/C=C/C=C/C=C/C=C/[C@H](O[C@@H]2O[C@H](C)[C@@H](O)[C@H](N)[C@@H]2O)C[C@@H]2O[C@](O)(C[C@@H](O)C[C@@H](O)[C@H](O)CC[C@@H](O)C[C@@H](O)CC(=O)O[C@H]1C)C[C@H](O)[C@H]2C(=O)O	94.4%
CCCCC(O)c1ccccc1 (stereo not drawn)	75.2%
CC1(O)CCC(C(C)(C)O)CC1 (stereo not drawn)	100%
C[C@H](N)[C@H](O)c1cccc(O)c1	81.9%

Series 4
Compound: CC(C)N(CCC(=O)c1ccc2ccccc2c1)Cc1ccccc1
Observed: enzyme activity
Mode: inhibitor
Tested at: 0.5 µM
Relative to: control
target	remaining activity [%]
STK17A (Homo sapiens, UniProt Q9UEE5)	104
TSSK2 (Homo sapiens, UniProt Q96PF2)	100
Cyclin-dependent kinase 1, with cyclin B (CDK1, Homo sapiens, UniProt P06493)	104
HIPK4 (Homo sapiens, UniProt Q8NE63)	107
Cyclin-dependent kinase 4, with cyclin D3 (CDK4, Homo sapiens, UniProt P11802)	92.4
PRKACG (Homo sapiens, UniProt P22612)	107
STK16 (Homo sapiens, UniProt O75716)	91.6
CAMK2B (Homo sapiens, UniProt Q13554)	96.6
SRMS (Homo sapiens, UniProt Q9H3Y6)	103
RPS6KA5 (Homo sapiens, UniProt O75582)	102
EPHB4 (Homo sapiens, UniProt P54760)	102
BLK (Homo sapiens, UniProt P51451)	106
EPHB1 (Homo sapiens, UniProt P54762)	96.8
AXL (Homo sapiens, UniProt P30530)	108
Cyclin-dependent kinase 6, with cyclin D3 (CDK6, Homo sapiens, UniProt Q00534)	102
RPS6KA6 (Homo sapiens, UniProt Q9UK32)	97.4
HIPK2 (Homo sapiens, UniProt Q9H2X6)	107
WNK3 (Homo sapiens, UniProt Q9BYP7)	97
EPHA4 (Homo sapiens, UniProt P54764)	94.5
MAP4K4 (Homo sapiens, UniProt O95819)	96.7
PHKG1 (Homo sapiens, UniProt Q16816)	91.6
DYRK3 (Homo sapiens, UniProt O43781)	107
MAPKAPK3 (Homo sapiens, UniProt Q16644)	95.7
